Measurements pooled from the literature.
Lines come from different studies, so protocols differ. Several values in a cell are separate wells, animals, samples, runs or records.

test system = CD-1 mice, male; setting = intraperitoneal, 30 mg/kg, 1 h; endpoint = brain to plasma ratio; value = 0.669 and 0.638; SMILES = CN(C)CC#Cc1ccc2[nH]c3c(c2c1)-c1nc(N)ncc1CCC3
test system = FVB Abcb1a/b-/- Abcg2-/- mice; setting = oral, 20 mg/kg, total AUC ratio; endpoint = brain to plasma ratio; value = 0.314; SMILES = CC(C)[C@@H](CS(=O)(=O)C(C)C)N1C(=O)[C@@](C)(CC(=O)O)C[C@H](c2cccc(Cl)c2)[C@H]1c1ccc(Cl)cc1
test = LC-MS/MS; test system = Hexb-/- mice, brain; setting = 30 mg/kg/day; endpoint = brain concentration; value = 37 ng/mL; SMILES = CCCCCN1C[C@H](O)[C@@H](O)[C@H](O)[C@@H]1CO
test system = mice; setting = P-glycoprotein inhibition, added: cyclosporine A pretreatment; how to read = baseline: without cyclosporine A; endpoint = brain uptake; value = no effect; SMILES = O=C(O)CCCOc1ccc([18F])cc1-c1cc(-c2ccccc2C(F)(F)F)n(-c2ccccc2)n1
test system = FVB Mdr1a/b−/− mice, brain; setting = oral, 0.15 mg/kg, 2 h; endpoint = brain concentration; value = 17.2 ng/g; SMILES = Cn1ncnc1[C@H]1c2n[nH]c(=O)c3cc(F)cc(c23)N[C@@H]1c1ccc(F)cc1
test system = C57BL/6J mice, male, brain; setting = oral, 25 mg/kg daily for 9 days, 4 h after last dose; endpoint = brain concentration; value = 4200 ng/g; SMILES = COc1nc(-c2cc(C)c(N[C@@H](C)c3c(F)cc(F)cc3F)nn2)ccc1-n1cnc(C)c1
test system = FVB wild-type mice, both sexes, brain; setting = intraperitoneal infusion (osmotic pump), dose not given, 48 h; endpoint = brain concentration; value = 1460 ng/g; SMILES = COc1cc2c(Nc3ccc(Cl)c(Cl)c3F)ncnc2cc1OC[C@@H]1C[C@@H]2CN(C)C[C@@H]2C1
test system = C57BL/6J mice, male, brain; setting = oral, 50 mg/kg daily for 9 days, 4 h after last dose; endpoint = brain concentration; value = 13700 ng/g; SMILES = COc1nc(-c2cc(C)c(N[C@@H](C)c3cc(F)cc(F)c3)nn2)ccc1-n1cnc(C)c1
test system = mice (male), brain; setting = intraperitoneal, 5 mg/kg, 0.5 h; endpoint = brain concentration; value = 379 ng/g; SMILES = CCOC(=O)c1c(NC(=O)CNC(C)C)sc2c1CCCCC2

For quick reference, copied from above:
test system = FVB Mdr1a/b−/− mice, brain; setting = oral, 0.15 mg/kg, 2 h; endpoint = brain concentration; value = 17.2 ng/g; SMILES = Cn1ncnc1[C@H]1c2n[nH]c(=O)c3cc(F)cc(c23)N[C@@H]1c1ccc(F)cc1
